Measured values from different studies.
Every numbered part comes from another study and shows a few of its results, in no order.
Sequence of UniProt P10721 (whole entry, unmodified, looked up): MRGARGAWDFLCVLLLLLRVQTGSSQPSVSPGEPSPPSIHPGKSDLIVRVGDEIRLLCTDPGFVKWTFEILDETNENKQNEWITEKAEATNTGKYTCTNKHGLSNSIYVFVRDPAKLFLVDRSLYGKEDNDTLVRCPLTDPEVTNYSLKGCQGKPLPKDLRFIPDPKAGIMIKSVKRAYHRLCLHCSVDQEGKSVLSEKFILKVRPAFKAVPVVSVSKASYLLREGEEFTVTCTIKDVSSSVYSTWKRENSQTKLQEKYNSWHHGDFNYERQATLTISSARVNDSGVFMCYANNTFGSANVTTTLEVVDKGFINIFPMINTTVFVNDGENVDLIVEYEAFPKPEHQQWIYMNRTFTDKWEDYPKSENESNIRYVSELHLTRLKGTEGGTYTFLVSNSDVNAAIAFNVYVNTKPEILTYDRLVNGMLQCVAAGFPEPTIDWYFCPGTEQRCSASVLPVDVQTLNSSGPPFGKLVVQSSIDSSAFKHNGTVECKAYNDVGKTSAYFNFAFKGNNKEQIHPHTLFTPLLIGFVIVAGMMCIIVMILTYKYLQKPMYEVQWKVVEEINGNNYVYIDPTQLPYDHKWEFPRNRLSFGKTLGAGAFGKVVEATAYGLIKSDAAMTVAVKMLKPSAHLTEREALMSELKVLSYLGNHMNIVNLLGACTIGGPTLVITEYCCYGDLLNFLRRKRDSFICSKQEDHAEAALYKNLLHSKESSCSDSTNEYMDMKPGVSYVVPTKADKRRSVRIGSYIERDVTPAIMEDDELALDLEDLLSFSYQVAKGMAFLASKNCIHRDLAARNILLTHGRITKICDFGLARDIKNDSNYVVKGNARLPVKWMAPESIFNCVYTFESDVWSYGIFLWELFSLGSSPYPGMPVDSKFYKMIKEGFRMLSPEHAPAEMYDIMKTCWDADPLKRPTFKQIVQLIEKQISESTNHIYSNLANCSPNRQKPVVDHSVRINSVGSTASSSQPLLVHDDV
Sequence of UniProt Q15831 (whole entry, looked up): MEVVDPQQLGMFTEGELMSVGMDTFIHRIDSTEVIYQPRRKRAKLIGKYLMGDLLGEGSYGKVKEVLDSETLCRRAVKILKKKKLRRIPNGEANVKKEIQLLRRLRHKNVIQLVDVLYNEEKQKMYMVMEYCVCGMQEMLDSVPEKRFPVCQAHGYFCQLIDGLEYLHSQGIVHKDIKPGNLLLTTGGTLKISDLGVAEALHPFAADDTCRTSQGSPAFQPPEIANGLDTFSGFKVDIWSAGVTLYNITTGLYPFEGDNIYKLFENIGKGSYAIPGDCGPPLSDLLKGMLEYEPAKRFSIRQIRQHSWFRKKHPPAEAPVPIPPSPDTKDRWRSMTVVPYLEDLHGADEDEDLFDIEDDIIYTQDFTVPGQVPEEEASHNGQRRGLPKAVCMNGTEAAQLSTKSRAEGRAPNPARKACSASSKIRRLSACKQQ
Sequence of UniProt Q12852 (whole entry, looked up): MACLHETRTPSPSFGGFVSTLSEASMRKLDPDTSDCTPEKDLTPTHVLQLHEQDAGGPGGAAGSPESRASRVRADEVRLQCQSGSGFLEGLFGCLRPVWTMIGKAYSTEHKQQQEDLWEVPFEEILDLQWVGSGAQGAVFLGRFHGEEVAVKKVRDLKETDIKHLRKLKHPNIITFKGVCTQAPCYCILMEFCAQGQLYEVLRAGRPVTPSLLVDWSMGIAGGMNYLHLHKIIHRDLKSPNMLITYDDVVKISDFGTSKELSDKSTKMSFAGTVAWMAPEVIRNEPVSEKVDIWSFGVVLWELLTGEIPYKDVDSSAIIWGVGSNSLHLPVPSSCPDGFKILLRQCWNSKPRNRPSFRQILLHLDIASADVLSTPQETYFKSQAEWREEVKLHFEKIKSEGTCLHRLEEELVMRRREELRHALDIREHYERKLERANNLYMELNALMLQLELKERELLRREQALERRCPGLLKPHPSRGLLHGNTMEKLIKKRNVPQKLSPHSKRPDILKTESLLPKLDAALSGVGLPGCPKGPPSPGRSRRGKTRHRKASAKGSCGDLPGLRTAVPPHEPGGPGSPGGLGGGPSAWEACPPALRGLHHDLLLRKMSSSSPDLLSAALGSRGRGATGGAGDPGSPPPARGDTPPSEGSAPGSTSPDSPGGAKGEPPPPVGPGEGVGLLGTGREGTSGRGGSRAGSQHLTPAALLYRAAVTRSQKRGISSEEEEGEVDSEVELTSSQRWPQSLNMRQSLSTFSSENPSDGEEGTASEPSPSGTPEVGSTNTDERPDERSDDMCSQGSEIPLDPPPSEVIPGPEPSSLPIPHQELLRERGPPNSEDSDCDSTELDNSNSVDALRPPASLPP
Sequence of UniProt Q86UE8 (whole entry, looked up): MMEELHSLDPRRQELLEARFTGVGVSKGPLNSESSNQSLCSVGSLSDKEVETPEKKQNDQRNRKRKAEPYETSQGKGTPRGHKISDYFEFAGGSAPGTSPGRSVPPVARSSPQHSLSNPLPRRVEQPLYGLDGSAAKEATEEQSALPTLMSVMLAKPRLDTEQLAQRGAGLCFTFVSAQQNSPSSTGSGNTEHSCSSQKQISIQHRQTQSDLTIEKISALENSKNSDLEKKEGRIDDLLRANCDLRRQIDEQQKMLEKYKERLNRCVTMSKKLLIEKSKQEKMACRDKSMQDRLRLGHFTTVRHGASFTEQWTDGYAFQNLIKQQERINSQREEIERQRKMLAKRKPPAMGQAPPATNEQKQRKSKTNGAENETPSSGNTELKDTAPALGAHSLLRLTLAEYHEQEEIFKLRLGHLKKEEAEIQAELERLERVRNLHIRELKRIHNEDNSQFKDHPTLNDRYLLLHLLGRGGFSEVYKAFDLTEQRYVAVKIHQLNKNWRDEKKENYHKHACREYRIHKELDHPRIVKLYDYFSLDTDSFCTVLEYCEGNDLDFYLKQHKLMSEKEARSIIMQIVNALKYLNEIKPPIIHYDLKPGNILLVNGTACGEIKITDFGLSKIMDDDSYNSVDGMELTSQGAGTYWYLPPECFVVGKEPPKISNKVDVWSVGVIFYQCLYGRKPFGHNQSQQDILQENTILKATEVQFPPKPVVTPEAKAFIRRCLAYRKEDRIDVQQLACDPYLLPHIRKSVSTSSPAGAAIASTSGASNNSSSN
Sequence of UniProt P32298 (whole entry, looked up): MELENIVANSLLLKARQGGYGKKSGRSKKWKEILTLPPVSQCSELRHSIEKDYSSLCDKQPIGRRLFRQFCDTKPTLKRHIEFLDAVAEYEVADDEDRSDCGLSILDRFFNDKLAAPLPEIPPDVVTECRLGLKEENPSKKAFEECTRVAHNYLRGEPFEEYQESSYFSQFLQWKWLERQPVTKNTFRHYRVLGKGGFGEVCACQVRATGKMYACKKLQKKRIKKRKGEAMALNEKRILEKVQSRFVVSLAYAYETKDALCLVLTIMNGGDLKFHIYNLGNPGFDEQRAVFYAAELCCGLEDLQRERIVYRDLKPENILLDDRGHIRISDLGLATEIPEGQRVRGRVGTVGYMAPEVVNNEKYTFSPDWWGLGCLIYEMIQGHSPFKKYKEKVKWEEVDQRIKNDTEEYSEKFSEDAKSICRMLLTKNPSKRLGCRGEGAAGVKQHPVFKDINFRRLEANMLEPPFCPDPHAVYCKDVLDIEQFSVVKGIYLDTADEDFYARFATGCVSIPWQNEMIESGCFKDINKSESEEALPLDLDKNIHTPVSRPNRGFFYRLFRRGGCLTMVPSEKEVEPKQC
Sequence of UniProt Q13546 (whole entry, looked up): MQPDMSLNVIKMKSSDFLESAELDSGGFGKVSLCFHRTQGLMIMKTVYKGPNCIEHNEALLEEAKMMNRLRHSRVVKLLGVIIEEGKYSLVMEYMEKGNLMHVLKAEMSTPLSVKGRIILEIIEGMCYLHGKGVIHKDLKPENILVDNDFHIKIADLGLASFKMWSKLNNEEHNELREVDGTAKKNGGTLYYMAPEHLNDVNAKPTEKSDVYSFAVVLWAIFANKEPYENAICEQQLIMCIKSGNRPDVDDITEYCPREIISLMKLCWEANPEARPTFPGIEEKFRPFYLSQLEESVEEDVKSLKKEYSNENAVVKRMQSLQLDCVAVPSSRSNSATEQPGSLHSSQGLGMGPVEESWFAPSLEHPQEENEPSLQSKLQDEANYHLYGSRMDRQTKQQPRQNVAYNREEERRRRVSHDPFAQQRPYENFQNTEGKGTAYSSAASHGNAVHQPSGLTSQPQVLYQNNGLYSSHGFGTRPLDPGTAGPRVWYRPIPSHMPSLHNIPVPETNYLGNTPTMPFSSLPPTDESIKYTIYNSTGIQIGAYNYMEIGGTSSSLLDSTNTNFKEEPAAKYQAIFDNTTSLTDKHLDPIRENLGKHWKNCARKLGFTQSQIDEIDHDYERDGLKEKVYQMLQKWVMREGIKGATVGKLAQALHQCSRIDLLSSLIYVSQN
Sequence of UniProt Q8TDX7 (whole entry, looked up): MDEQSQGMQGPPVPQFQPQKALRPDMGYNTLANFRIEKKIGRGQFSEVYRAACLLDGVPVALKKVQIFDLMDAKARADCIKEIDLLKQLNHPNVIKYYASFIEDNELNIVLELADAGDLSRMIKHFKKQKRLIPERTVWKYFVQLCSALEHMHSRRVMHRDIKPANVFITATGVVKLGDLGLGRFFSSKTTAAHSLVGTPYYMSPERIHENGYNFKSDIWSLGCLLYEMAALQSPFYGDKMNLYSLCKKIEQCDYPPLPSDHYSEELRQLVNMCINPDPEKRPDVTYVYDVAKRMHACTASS
Sequence of UniProt P48729 (whole entry, looked up): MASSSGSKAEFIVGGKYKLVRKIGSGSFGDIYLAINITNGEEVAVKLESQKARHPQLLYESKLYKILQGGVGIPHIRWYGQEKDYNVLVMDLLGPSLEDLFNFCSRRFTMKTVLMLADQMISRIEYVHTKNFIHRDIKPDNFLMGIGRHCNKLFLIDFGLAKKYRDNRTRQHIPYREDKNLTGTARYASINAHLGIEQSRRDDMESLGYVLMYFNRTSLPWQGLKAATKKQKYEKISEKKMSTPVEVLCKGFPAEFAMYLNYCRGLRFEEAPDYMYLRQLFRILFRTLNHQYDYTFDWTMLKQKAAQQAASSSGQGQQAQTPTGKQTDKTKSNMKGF

Set 1
Target: MAP kinase-activated protein kinase 5 (MAPKAPK5, Homo sapiens, UniProt Q8IW41)
Effect on: enzyme activity
Mode: inhibitor
Tested at: 0.5 µM
Relative to: control
Target sequence (Q8IW41 1-473): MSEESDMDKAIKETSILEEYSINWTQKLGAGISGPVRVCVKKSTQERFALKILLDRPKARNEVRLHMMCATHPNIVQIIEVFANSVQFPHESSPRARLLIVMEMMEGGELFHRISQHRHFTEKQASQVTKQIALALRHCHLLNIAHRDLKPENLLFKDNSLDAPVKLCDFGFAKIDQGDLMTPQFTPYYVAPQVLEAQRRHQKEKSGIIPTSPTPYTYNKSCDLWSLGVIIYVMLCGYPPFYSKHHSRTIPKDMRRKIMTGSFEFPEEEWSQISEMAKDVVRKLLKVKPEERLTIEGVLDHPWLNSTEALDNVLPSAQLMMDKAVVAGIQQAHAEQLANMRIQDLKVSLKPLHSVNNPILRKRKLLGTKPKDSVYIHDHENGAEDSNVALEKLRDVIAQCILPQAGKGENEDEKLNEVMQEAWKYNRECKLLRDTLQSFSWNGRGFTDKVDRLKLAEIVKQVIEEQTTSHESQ
Structure (SMILES)	remaining activity [%]
CCOc1cc2ncnc(Nc3cccc(Br)c3)c2cc1OCC	71.6
CC(=O)O/N=C1/C(c2c(O)[nH]c3cc(Br)ccc23)=Nc2ccccc21	94.9
CCN1/C(=C/C(C)=O)Sc2ccc(OC)cc21	112
COc1ccc(-c2cnc3c(-c4ccsc4)cnn3c2)cc1	90.7
Cn1cc(/C=C2\C(=O)Nc3ccc(S(N)(=O)=O)cc32)c2ccccc21	88.3
Nc1[nH]nc2nnc(-c3c(-c4ccccc4)nn4ccccc34)cc12	97.7
Cc1ccc(NC(=O)c2ccc(CN3CCN(C)CC3)cc2)cc1Nc1nccc(-c2cccnc2)n1	90.8
C[S+]([O-])c1ccc(-c2nc(-c3ccncc3)c(-c3ccc(F)cc3)[nH]2)cc1 (stereo not drawn)	92.5
CS(=O)(=O)CCNCc1ccc(-c2ccc3ncnc(Nc4ccc(OCc5cccc(F)c5)c(Cl)c4)c3c2)o1	92.8
O=C(Nc1ccc(Cl)cc1)c1ccccc1NCc1ccncc1	88.7
CC(C)[C@H](CO)Nc1nc(Nc2cccc(Cl)c2)c2ncn(C(C)C)c2n1	97.6
Cc1nc(Nc2ncc(C(=O)Nc3c(C)cccc3Cl)s2)cc(N2CCN(CCO)CC2)n1	94.9
COc1cc2ncnc(Nc3ccc(OCc4ccccc4)cc3)c2cc1OC	100
CN(C)CCCn1cc(C2=C(c3c[nH]c4ccccc34)C(=O)NC2=O)c2ccccc21	93.7
COc1cc2ncc(-c3ccccc3)nc2cc1OC	88.1
Cn1cnc2cc3c(Nc4cccc(Br)c4)ncnc3cc21	130
O=c1cc(N2CCOCC2)oc2c1ccc1ccccc12	98.4
CCC(=O)Nc1ccc2ncnc(Nc3cccc(Br)c3)c2c1	105
COc1cc2ncnc(N3CCN(C(=O)Nc4ccc(Oc5ccccc5)cc4)CC3)c2cc1OC	118

Set 2
Compound: CS(=O)(=O)N1CCCC(NC(=O)[C@H](CCC2CCCCC2)NC(=O)c2ccc(CNC(=O)c3cnc4ccccn34)cc2)C1 (stereo partly drawn)
Effect on: cell-free assay
Method: competition with immobilised ligand
Tested at: 0.1 µM
target	remaining binding [%]
MAP3K12 (Homo sapiens, UniProt Q12852)	100
NEK9 (Homo sapiens, UniProt Q8TD19)	100
GRK4 (Homo sapiens, UniProt P32298)	100
STK11 (Homo sapiens, UniProt Q15831)	51
EGFR (Homo sapiens, UniProt P00533, G719C)	100
NEK7 (Homo sapiens, UniProt Q8TDX7)	100
CDKL3 (Homo sapiens, UniProt Q8IVW4)	100
CSF1R (Homo sapiens, UniProt P07333)	65
KIT (Homo sapiens, UniProt P10721, A829P)	66
MAPK9 (Homo sapiens, UniProt P45984)	90
FGR (Homo sapiens, UniProt P09769)	87
EGFR (Homo sapiens, UniProt P00533, G719S)	100
Tyrosine-protein kinase ABL1, non-phosphorylated (ABL1, Homo sapiens, UniProt P00519, Q252H)	37
PIKFYVE (Homo sapiens, UniProt Q9Y2I7)	100
CSNK1A1 (Homo sapiens, UniProt P48729)	100
RPS6KB1 (Homo sapiens, UniProt P23443)	100
BMPR1B (Homo sapiens, UniProt O00238)	100
CDK11A (Homo sapiens, UniProt Q9UQ88)	100
TLK2 (Homo sapiens, UniProt Q86UE8)	89
RIPK1 (Homo sapiens, UniProt Q13546)	88
COQ8A (Homo sapiens, UniProt Q8NI60)	100
EPHA7 (Homo sapiens, UniProt Q15375)	96

Set 3
Cell line: A-375
Tested at: 100 µM
Time: 18 h
SMILES	viability [%]
N[C@@H](CCC(=O)N[C@@H](CS)C(=O)NCC(=O)O)C(=O)O	92.1
CC=Cc1ccc(OC)cc1	81
N#C[C@@H]1CCCN1C(=O)CNC12CC3CC(CC(O)(C3)C1)C2	94
CO/N=C(\C(=O)N[C@@H]1C(=O)N2C(C(=O)O)=C(COC(C)=O)CS[C@H]12)c1csc(N)n1	104
N[C@@H]1CON=C1O	110
Cc1cn([C@H]2C[C@H](N=[N+]=[N-])[C@@H](CO)O2)c(=O)[nH]c1=O	109
O=C(O[C@H]1CN2CCC1CC2)N1CCc2ccccc2[C@@H]1c1ccccc1	8.9
Oc1ccc(OCc2ccccc2)cc1	65.7
CC(C(=O)O)c1cccc(Oc2ccccc2)c1 (stereo not drawn)	100
Clc1ccc2nsnc2c1NC1=NCCN1	101
CC(=O)Nc1ccc(OC(=O)c2ccccc2OC(C)=O)cc1	99.3
C=CCOC(Cn1ccnc1)c1ccc(Cl)cc1Cl (stereo not drawn)	96.8
CCCNC(C)C(=O)Nc1c(C)csc1C(=O)OC (stereo not drawn)	94.7
C#C[C@]1(O)CC[C@H]2[C@@H]3CCC4=C(CCC(=O)C4)[C@H]3CC[C@@]21C	59.6

Set 4
Compound: COc1cc(C(=O)N2CCC(N3CCN(C)CC3)CC2)ccc1Nc1ncc2c(n1)N(C)c1ccccc1C(=O)N2C
Method: KINOMEscan
Tested at: 10 µM
Relative to: DMSO control
Direction: lower = stronger binding
target	binding
MUSK	99%
TTK	28%
BRAF	81%
YANK2	100%
INSRR	97%
SRPK3	72%
ERN1	59%
MERTK	100%
YSK1	68%
PIM2	100%
TNIK	100%
CDKL3	83%
PRP4	93%
NEK1	83%
CAMK1	55%
CAMK2B	62%
FLT4	100%

Excerpt of the above (set 1):
Structure (SMILES)	remaining activity [%]
CC(C)[C@H](CO)Nc1nc(Nc2cccc(Cl)c2)c2ncn(C(C)C)c2n1	97.6
O=C(Nc1ccc(Cl)cc1)c1ccccc1NCc1ccncc1	88.7
Cn1cnc2cc3c(Nc4cccc(Br)c4)ncnc3cc21	130
Cc1nc(Nc2ncc(C(=O)Nc3c(C)cccc3Cl)s2)cc(N2CCN(CCO)CC2)n1	94.9
CCC(=O)Nc1ccc2ncnc(Nc3cccc(Br)c3)c2c1	105
COc1cc2ncnc(N3CCN(C(=O)Nc4ccc(Oc5ccccc5)cc4)CC3)c2cc1OC	118
Cn1cc(/C=C2\C(=O)Nc3ccc(S(N)(=O)=O)cc32)c2ccccc21	88.3
Nc1[nH]nc2nnc(-c3c(-c4ccccc4)nn4ccccc34)cc12	97.7
CCN1/C(=C/C(C)=O)Sc2ccc(OC)cc21	112
